Experimental data collected from several papers.
Parts stem from different laboratories: compare values within a part only. Positions count from the first letter of the parent shown.

Series 1
Target: Ras GTPase-activating protein-binding protein 1, RRM domain (G3BP1, Homo sapiens, UniProt Q13283)
UniProt Q13283, sequence (whole entry, looked up): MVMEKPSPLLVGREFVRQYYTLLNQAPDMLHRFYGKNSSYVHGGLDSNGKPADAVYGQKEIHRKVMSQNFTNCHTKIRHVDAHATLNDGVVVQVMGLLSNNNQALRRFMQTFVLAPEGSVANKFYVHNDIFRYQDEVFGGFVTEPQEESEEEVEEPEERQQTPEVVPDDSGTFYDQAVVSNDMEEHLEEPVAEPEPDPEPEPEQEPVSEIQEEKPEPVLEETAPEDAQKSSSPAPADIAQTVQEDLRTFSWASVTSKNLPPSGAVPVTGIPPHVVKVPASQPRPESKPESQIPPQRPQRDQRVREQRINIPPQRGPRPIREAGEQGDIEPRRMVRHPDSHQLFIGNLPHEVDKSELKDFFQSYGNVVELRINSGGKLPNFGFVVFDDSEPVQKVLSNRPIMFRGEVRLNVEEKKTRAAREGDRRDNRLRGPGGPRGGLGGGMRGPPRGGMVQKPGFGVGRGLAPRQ
Technique: RNA Bind-n-Seq
Form: RNA
Matrix: in vitro
Tested at: 1 µM
Notes: whole 134-nt RNA, ends assumed
Together with: 150 mM KCl
Relative to: input library
Direction: higher = stronger binding
Constant ends, left off below: GGGAGUUCUACAGUCCGACGAUC … UGGAAUUCUCGGGUGUCAAGG
With `CAAGUCCUGUGCUACACAUCGUAUGUACCGAAUCGGGGUUUGGUUUGGGGUUUGGAAAGUAUUAUGUUACGCCGUUCGGAUCUGCACUUC` the log2 enrichment was -0.417.
The log2 enrichment of `UCAAGUCCUGUGCUACACAUCGUAUGUACCGAAUCGGGCCCGGCCCGGGGCCCGGAAAGUAUUAUGUUACGCCGUUCGGAUCUGCACUUC` is reported as -0.743.
With `UCCUGUGCUACACAUCGUAUGUACCGAAUCGGGCCCCCCGGCCCCCCGGGGCCCCCCGGAAAGUAUUAUGUUACGCCGUUCGGAUCUGCA` the log2 enrichment was -0.302.
`UUAUUGAACUGACAAGGUCCUCCCUGUGUUGUAGCAAGGACCAGACUGGCUUGAGCUCUCUGAGAUGACCGAGCAGCCAGACUAUGACCU` gave a log2 enrichment of 0.211.
With `GGCCCGACCUGAUCGACUUUGAUAAGCUGAAGGACUCCAAUGCCCGGCACAACCUGGAGCACGCAUUCAAUGUGGCUGAGCGCCAGCUGG` the log2 enrichment was -0.192.
`GUCCUGUGCUACACAUCGUAUGUACCGAAUCGGGGUUUUUGGGGAAAGGGGAAAGGGGAAAGUAUUAUGUUACGCCGUUCGGAUCUGCAC` has a log2 enrichment of 1.8.
`CUCAAGUCCUGUGCUACACAUCGUAUGUACCGAAUCGGGGCCGGGGCCGGCCGGAAAGUAUUAUGUUACGCCGUUCGGAUCUGCACUUCC` gave a log2 enrichment of -0.816.
With `CUGUGCUACACAUCGUAUGUACCGAAUCGGGGAAAAAAAGGGAAAAAAAGGGAAAAAAAGGAAAGUAUUAUGUUACGCCGUUCGGAUCUG` the log2 enrichment was 0.0532.

Series 2
Target: CEP164, C-terminal peptide (human)
Technique: DHFR complementation, deep sequencing
Matrix: yeast
Notes: single substitutions, model-inferred values
Relative to: wild type
Direction: higher = weaker binding
Parent: PDZK1, PDZ domain 2 (human); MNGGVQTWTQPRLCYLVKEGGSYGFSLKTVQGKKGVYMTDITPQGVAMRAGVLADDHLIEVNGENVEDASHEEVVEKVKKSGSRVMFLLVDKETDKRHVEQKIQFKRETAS; partner HNRVKVYRF
`G32Q` — result for “binding free energy change”: 0.469 kcal/mol.
Under “binding free energy change”, `D40P` is recorded as 0.463 kcal/mol.
For `K92D`, “binding free energy change” read -0.0532 kcal/mol.
Under “binding free energy change”, `A47G` is recorded as 0.745 kcal/mol.
`F25L` — result for “binding free energy change”: 0.794 kcal/mol.
For `A50Q`, “binding free energy change” read 0.273 kcal/mol.
`S81A`: “binding free energy change” 0.0403 kcal/mol.
`V5R` — result for “binding free energy change”: -0.0396 kcal/mol.

Series 3
Target: Histone acetyltransferase KAT6A, both winged helices, GST fusion (KAT6A, Homo sapiens, UniProt Q92794, residues 1-181)
Technique: protein binding microarray
Form: double-stranded DNA, one strand shown
Matrix: in vitro
Tested at: not given
Notes: 8-mer, flanks averaged, mean of 2 arrays, mostly near background
Relative to: not given
Direction: higher = stronger binding
Target sequence (chain): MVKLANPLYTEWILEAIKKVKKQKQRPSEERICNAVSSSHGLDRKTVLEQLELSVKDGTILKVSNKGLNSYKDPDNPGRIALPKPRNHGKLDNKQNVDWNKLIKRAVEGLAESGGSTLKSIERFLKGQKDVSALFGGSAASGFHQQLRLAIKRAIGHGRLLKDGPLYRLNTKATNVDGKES
The E-score of `ACATATGC` is reported as -0.0668.
For `CCAACGTA`, the E-score was -0.134.
`AGTCCGAT` gave an E-score of 0.0927.
`ATGCTTTA` has an E-score of -0.0644.
With `CGTTGAAA` the E-score was 0.084.
`CAGTCTCG` gave an E-score of -0.0257.
With `TCACTACA` the E-score was -0.0866.
`AGTCTGAC` gave an E-score of -0.21.

Series 4
Target: Max-binding protein MNT, bHLH-zipper, MAX partner unstated (MNT, Homo sapiens, UniProt Q99583, residues 220-300)
Technique: protein-binding microarray
Form: double-stranded DNA, one strand shown
Matrix: in vitro
Tested at: not given
Notes: k-mer, scored over probes, only values ≥0.25
Direction: higher = stronger binding
Residues (chain): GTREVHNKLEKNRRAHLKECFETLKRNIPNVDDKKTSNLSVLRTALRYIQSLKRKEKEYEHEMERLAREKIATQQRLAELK
For `CCGCCCCA`, the E-score was 0.357.
The E-score of `ACATGTCT` is reported as 0.26.
For `GTGGGACA`, the E-score was 0.396.
For `CGTACCAC`, the E-score was 0.285.
`CACGCTAG` gave an E-score of 0.286.
The E-score of `TCACGCGA` is reported as 0.372.
For `CATGGCAC`, the E-score was 0.336.
The E-score of `CGTGAAAG` is reported as 0.251.

Series 5
Target: CCNA1, cyclin fold, Cln2 fusion (human)
Technique: yeast growth competition, sequencing
Matrix: yeast
Notes: strong parent motif
Relative to: not given
Direction: higher = stronger binding
Parent: viral docking peptide; TSVRRALFTGGSD
`G11S` — result for “normalised enrichment score”: 1.
Under “normalised enrichment score”, `G11Q` is recorded as 1.23.
For `A6W`, “normalised enrichment score” read -0.532.
For `S2P`, “normalised enrichment score” read 1.03.
Under “normalised enrichment score”, `L7E` is recorded as -0.00858.
`R5A` — result for “normalised enrichment score”: 0.279.
Under “normalised enrichment score”, `G10I` is recorded as 0.872.
Under “normalised enrichment score”, `S12D` is recorded as 1.68.
`S12F` — result for “normalised enrichment score”: 1.05.
For `R4Y`, “normalised enrichment score” read 0.357.
`G11V` — result for “normalised enrichment score”: 1.3.
Under “normalised enrichment score”, `R5Q` is recorded as 0.221.
`S2H`: “normalised enrichment score” 1.28.
`T9S`: “normalised enrichment score” 0.836.
Under “normalised enrichment score”, `V3E` is recorded as -0.0353.
Under “normalised enrichment score”, `S12G` is recorded as 0.854.
For `R5D`, “normalised enrichment score” read -0.264.
Under “normalised enrichment score”, `G10A` is recorded as 1.
`L7N` — result for “normalised enrichment score”: 0.401.
For `S2R`, “normalised enrichment score” read 1.19.
For `S2E`, “normalised enrichment score” read 0.974.
For `F8S`, “normalised enrichment score” read 0.498.
For `G10E`, “normalised enrichment score” read 2.14.
Under “normalised enrichment score”, `G11W` is recorded as 0.571.
`G10H` — result for “normalised enrichment score”: 0.76.

Excerpt of the above (series 5):
`S12F` — result for “normalised enrichment score”: 1.05.
For `R4Y`, “normalised enrichment score” read 0.357.
`G11V` — result for “normalised enrichment score”: 1.3.
Under “normalised enrichment score”, `R5Q` is recorded as 0.221.
`S2H`: “normalised enrichment score” 1.28.
`T9S`: “normalised enrichment score” 0.836.
